Measurements of several laboratories.
A part holds a random share of what one study measured.

Series 1
Target: Centromere-binding protein 1, full length, His-tagged (CBF1, Saccharomyces cerevisiae, UniProt P17106, residues 1-351)
Sequence of UniProt P17106 (whole entry, looked up): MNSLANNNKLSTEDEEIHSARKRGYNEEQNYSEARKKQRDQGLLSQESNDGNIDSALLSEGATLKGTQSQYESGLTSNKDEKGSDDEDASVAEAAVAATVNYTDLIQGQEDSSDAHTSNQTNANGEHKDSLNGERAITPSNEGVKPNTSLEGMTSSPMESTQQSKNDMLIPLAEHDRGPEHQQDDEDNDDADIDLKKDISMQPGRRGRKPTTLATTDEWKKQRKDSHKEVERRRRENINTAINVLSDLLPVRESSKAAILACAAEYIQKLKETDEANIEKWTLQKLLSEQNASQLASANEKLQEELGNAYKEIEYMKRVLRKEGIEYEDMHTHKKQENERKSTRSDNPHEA
Technique: competition protein-binding microarray
Molecule type: double-stranded DNA, one strand shown
Sample: in vitro
Concentration: 2 µM
Setting: whole 60-bp probe, lowest competitor level
Together with: Pho4 competitor, 0.05 µM
Reading: higher = stronger binding
All sequences stand within: … GTCTTGATTCGCTTGACGCTGCTG
The fluorescence intensity of `CGTCCTAGTGATTGTCACGGAACTTCCATGAGGAAG` is reported as 92.2 a.u.
`GATTGATTTTTGCGACTCTTGCGGAAAGGTTCGCCG` gave a fluorescence intensity of 57.6 a.u.
With `CATACCCAACCTTGTCACTGGACTTAAGATATTTGT` the fluorescence intensity was 108 a.u.
`TGCGCAACAACTTGCATTGTGGGTGTATGTCTAGAA` gave a fluorescence intensity of 67.5 a.u.
`TTCAATGAAATTCGTCACGTCTCTGAGTTTCCTGAG` has a fluorescence intensity of 115 a.u.
`CATACCCAACCTTTTCACGTGCCTTAAGATATTTGT` gave a fluorescence intensity of 1180 a.u.
With `ATTAAATAGAAATATCACATGGCGATCCACTGAATG` the fluorescence intensity was 551 a.u.
With `CCTTGAAGCCCGGCGGACGTGTCTGCCGGACCGAAA` the fluorescence intensity was 42.8 a.u.
The fluorescence intensity of `CTATAATGATTCTGTCGCGTGGAACGGTTTTCCATG` is reported as 94.9 a.u.
For `AAATTACTAAGTTGTCGAGTGGGTGACGCCGTATGA`, the fluorescence intensity was 76.5 a.u.
The fluorescence intensity of `ATTTCGGGGCGGGTCCCCGTGGTGACGCTGGTGACG` is reported as 72.6 a.u.
`CATTTGACTCCATAGAACGTGTGGAGCTGGTGCCAT` gave a fluorescence intensity of 68.4 a.u.
`CATACCCAACCTTTTCACGTGAGGTAAGATATTTGT` gave a fluorescence intensity of 1220 a.u.
`CGTCCTAGTGATTTTCACGTGTTTTCCATGAGGAAG` gave a fluorescence intensity of 1100 a.u.
The fluorescence intensity of `CATCATCGCATCTTACAGATGTCCCGGTTTCACTTT` is reported as 68.8 a.u.
`AAAGCGGTAATTTGTCACTTCACTTCACATATCTAT` has a fluorescence intensity of 83.2 a.u.
With `GTCTTGTCTCATTGGTTTGTGGGTGTCCCCACTTCA` the fluorescence intensity was 76.6 a.u.
`CTAACGAAGGTTTGCGAGGTGGGTGACAAGCCAAGT` has a fluorescence intensity of 71.7 a.u.
With `CATACCCAACCTTGTTTGGTGGGTGAAGATATTTGT` the fluorescence intensity was 78.4 a.u.
`GTCTTGTCTCATTGAATTGTGGGTGTCCCCACTTCA` has a fluorescence intensity of 89.8 a.u.

Series 2
Target: RNA binding protein fox-1 homolog 2, RRM domain, GST-SBP tag (RBFOX2, Homo sapiens, UniProt O43251-10, residues 100-194)
Technique: RNA Bind-n-Seq
Molecule type: RNA
Sample: in vitro
Concentration: 365 nM
Setting: natural RNA segment, single round, ends assumed
Reference: no-protein control
Reading: higher = stronger binding
All sequences stand within: GGGAGUUCUACAGUCCGACGAUC … UGGAAUUCUCGGGUGCCAA
Residues (chain): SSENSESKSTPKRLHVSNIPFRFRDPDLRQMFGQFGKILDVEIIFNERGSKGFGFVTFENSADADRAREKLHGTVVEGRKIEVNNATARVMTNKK
`GCUGGCCCUGCAGCUUGCUUCCCUGCGGAUUAGGCCUUUGCUCAUGCUAUAGCCUUCAUGUGGGUGCUACCUAGAGCAGGCGUGAACUGCUGGGUGGUGAUUGUGAGUUC` — result for “RBNS enrichment (R)”: 0.471.
`GGAUUAUCUGUCAUUCAAGAUCCUUCCUUCAACCCCAAGGUCAGCUCCCAUCUCAUUUCCAGAAAGGCUCAUACCUGGCUUGCAGGGAAGCAUCUGUCUUGUCAUUCCAG` — result for “RBNS enrichment (R)”: 0.423.
For `GUCGAUUUCCUGCCACCUGGGCAGAUAACCUGGAGAUUUUCACCUUUUCUUUUCAGCUUGAUUGCAUUUGACUAUAUUUUACAGCCAGUGAUUGUAGUUUCAUGUUAAUA`, “RBNS enrichment (R)” read 0.443.
`CAUCAGCACCUAGACGUACCGCACGGGAAGGAGGAGCAGAUCUGCUGACCUCAGGGCCUGACAGUGUGGGACAGGCUCUUCUUUCCCAAAAUUAGGGAGCUCUUGACAGA` — result for “RBNS enrichment (R)”: 0.638.
For `GUUGGGAUUCUGUUAUCCCUGAUACCCCAGGAGCCUAUUGACCUGACUGAGAAUAGUGACAUGUCUGUCUUGUGACCAGAUAUGAGUGUGCAUAAGGUCCUGUCUAGCCG`, “RBNS enrichment (R)” read 0.606.
`GUCACUGGUCAGAAUCCUCACUGAGCUCCCAGUCCAGAGAGAAGCCAGACAAUUAAAACAGUAAUGAAAUGAUGUGUGUGGCCUUUGUCUACUCAAGGUCCCUUUCUGCU` — result for “RBNS enrichment (R)”: 0.177.
`AUUUCUCAUGUCUUGAGGUUUUGUUCAUGCCCCUAUGACUGACCAAUGUGAUAAGGACUUUAAAAAAGAAGCAUGUAUGUUUUUUACUGUUUGUAAGAAGUACUUUCGUU` — result for “RBNS enrichment (R)”: 2.86.
`CAGGGGAGGAUGGUGGCCACGUACUAAGAUCUUGGCUCUCCAGCCCGUGUUUCCUAAGGACUCCGCAGACAAGGCUUUCACCUGCGUGUUCAUCUGUGGGUCAUCGAGGC` — result for “RBNS enrichment (R)”: 0.546.
For `CCCAGGAGGUAGAAAAUGAGUGGCAGGCUAGAGAUUUCACCCAUUUUGUGGGCUGGAGUUACCAGUAGCUCCAGCAGUUACCCUGAAGAGAGAUUGGGCUUCAGCCUUCA`, “RBNS enrichment (R)” read 0.621.
Under “RBNS enrichment (R)”, `GAGUCUUUGAGCCUACGAGUCAUGCCACCAGCCAUAAGUUGACCUAUCACUUGAGAACCUCCUCAGCAAAGAUGCCAGAAAACAUUCAAUCAAGUUGGCAAAUGACACAG` is recorded as 0.331.
For `CCCAACUCCCGAAUCCUCUCUUGAGUGUGGACCUCAACACCUUGAGCCCUAGUAAAGGAACUAUGCAAAUGCAGGCCACUCUCCCCACCACGUCUGUGCCCUGCACUGUC`, “RBNS enrichment (R)” read 0.353.
`CACUUCCAGUCCUCCUCAGAGGAUGUGAUGGUGGUAGGAGAGCCAACUCUGAUGGGAGGUGAGUUUGGGGACGAGGACGAAAGGCUAAUCACUAGAUUAGAAAACACGCA` — result for “RBNS enrichment (R)”: 3.64.

Series 3
Target: Interferon regulatory factor 3, full length, phosphomimetic (IRF3, Homo sapiens, UniProt Q14653, residues 1-427, S386D/S396D/S398D/S402D/T404D/S405D)
Sequence of UniProt Q14653 (whole entry, unmodified, looked up): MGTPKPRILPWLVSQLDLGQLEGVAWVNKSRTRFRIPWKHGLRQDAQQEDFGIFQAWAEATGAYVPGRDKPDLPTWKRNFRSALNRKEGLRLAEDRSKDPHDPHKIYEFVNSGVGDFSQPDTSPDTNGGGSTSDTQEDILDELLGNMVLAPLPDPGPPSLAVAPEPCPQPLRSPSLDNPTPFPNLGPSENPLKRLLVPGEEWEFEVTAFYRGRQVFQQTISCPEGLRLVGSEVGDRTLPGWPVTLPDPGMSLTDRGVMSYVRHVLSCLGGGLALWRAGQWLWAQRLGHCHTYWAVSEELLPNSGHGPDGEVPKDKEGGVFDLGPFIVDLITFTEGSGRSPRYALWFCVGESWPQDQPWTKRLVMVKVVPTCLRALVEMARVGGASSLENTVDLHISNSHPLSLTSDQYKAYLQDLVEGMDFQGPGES
Technique: protein-binding microarray
Molecule type: double-stranded DNA, one strand shown
Sample: in vitro
Concentration: 2540 nM top
Setting: 60-bp whole probe
Together with: salmon DNA 0.4 mg/ml
Reference: random background probes
Reading: higher = stronger binding
All sequences stand within: GCCTAGCAC … GTCTTGATTCGCTTGACGCTGCTG
`TTAGGTATCGGTATCGGTTGGTGCTAG` — result for “fitted relative affinity”: 4.4 z-score.
Under “fitted relative affinity”, `TCATTTTTTTTTTTGTAACTGTGCTAG` is recorded as 1.22 z-score.
Under “fitted relative affinity”, `AGATATTTAGAACTTCTCCACGTGCTA` is recorded as -0.00797 z-score.
Under “fitted relative affinity”, `GACGGTCTGGGGTATCGGGACGTGCTA` is recorded as -0.499 z-score.
`TATGTTCACTATTTAAGGCCGTGCTAG`: “fitted relative affinity” 0.921 z-score.
`TTAGGTATTCTTCTCCTTTAGTGCTAG`: “fitted relative affinity” 1.21 z-score.
`TCACAGTTGAGTTCTGTTACTGTGCTA`: “fitted relative affinity” 0.0647 z-score.
`GACGATATCAGTCTCCAGACGTGCTAG` — result for “fitted relative affinity”: 1.49 z-score.
`TCATTTTTTTTTTCTACACTGTGCTAG` — result for “fitted relative affinity”: 1.72 z-score.
`TTAGGTTTCCTTATCCTTTCGTGCTAG`: “fitted relative affinity” 8.19 z-score.
`GACGGTTTCAGTCTCGAGACGTGCTAG`: “fitted relative affinity” 5.02 z-score.
`GACGACTCCAGTTTCGAGACGTGCTAG`: “fitted relative affinity” 1.73 z-score.
Under “fitted relative affinity”, `TTCGATATCAGTTTCGATTAGTGCTAG` is recorded as 4.87 z-score.
`AACGGTATCGGTCTCGGGACGTGCTAG`: “fitted relative affinity” 4.7 z-score.
For `TCACTTCTGGATCTCAGACTGTGCTAG`, “fitted relative affinity” read 1.5 z-score.
`GACGGTATCCTTATCCTGAAGTGCTAG`: “fitted relative affinity” 4.95 z-score.
For `GACGATTTCGGCTATCGAGACGTGCTA`, “fitted relative affinity” read 1.03 z-score.
`TTAGGTATAGGTATCGGTTAGTGCTAG` — result for “fitted relative affinity”: 1.32 z-score.
Under “fitted relative affinity”, `GACGATATCAGACTGGAGGCGTGCTAG` is recorded as 0.146 z-score.
`TTAGGTATCGGGCCTGGGTTAGTGCTA` — result for “fitted relative affinity”: -0.104 z-score.
`GACTGTATCCTTTTCCTGACGTGCTAG` — result for “fitted relative affinity”: 7.19 z-score.
`TTAGATATCAGTATCGATAAGTGCTAG`: “fitted relative affinity” 1.73 z-score.
`CAGAATCTCTCATGTTACATTGTGCTA`: “fitted relative affinity” 0.22 z-score.
`GTATTTGTCCCTATTTAAGAGTGCTAG` — result for “fitted relative affinity”: 2.05 z-score.
`GACGCTTTCCTTTTCCTGACGTGCTAG` — result for “fitted relative affinity”: 7.98 z-score.

Series 4
Target: RING finger protein unkempt homolog, zinc fingers 1-6, GST-SBP tag (UNK, Homo sapiens, UniProt Q9C0B0, residues 30-357)
Sequence of UniProt Q9C0B0 (30-357, looked up): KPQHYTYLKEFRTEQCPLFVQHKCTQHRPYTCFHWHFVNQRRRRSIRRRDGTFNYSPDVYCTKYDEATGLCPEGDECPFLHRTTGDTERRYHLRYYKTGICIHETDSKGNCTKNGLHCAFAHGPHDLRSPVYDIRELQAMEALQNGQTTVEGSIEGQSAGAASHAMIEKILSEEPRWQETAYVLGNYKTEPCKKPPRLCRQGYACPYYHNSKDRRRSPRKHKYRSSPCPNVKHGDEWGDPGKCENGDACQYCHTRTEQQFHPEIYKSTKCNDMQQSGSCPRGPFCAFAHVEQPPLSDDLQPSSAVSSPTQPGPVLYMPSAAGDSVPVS
Technique: RNA Bind-n-Seq
Molecule type: RNA
Sample: in vitro
Concentration: not given
Setting: RNA with constant flanks, human and mouse sites, ends assumed
Reference: input RNA pool
Reading: higher = stronger binding
All sequences stand within: GGGAGUUCUACAGUCCGACGAUC … CAACAGAGGAUUGAGCAUCA
With `AGCACCCCCGGGAGCGGGGCUCGCAGCCGGGGACCAGCCCUGCAGCGCCCAUCUGGGGGCUAGUUCUUAACUCUUCCUCCACGGAGCCCCAGACGGGUCCCCUCCCUUCUUGAUCCUUUU` the bound/input enrichment was 0.167 ratio.
`AAGAGUCAAGGUGGGGAGCCAACAUACAACGUUGCUGUUGGCAGGGCCGGGAGAGUCUUGGUCUUUGUAAUGGGAAAAGAAGGGGUCCAUGGAGGCGGAUUGAAUAAGAAGGCAUACUCA` has a bound/input enrichment of 0.455 ratio.
With `GGGGUUCCUAGUACUGCAAUUCGGGAAAUUUCUCUAUUAAAGGAACUUCGUCAUCCAAAUAUAGUCAGUCUUCAGGAUGUGCUUAUGCAGGAUUCCAGGUUAUAUCUCAUCUUUGAGUUU` the bound/input enrichment was 0.121 ratio.
For `CAGGGUAUUGCCGCUGUUCUAAUAUUUUUUUAAGCAUAGACAGACUUAUAAUUAAUAUACAUUAGUUAGUGGCGUUGAAACAGUCCUCUGAGACAUUAACUAUAAGACUGUGUUCUGUUU`, the bound/input enrichment was 0.823 ratio.
With `GCCGGCAUAGAUGGGGUGGUUAGUAUGAGGUUCAAGGUGAAAAGAUCAGAAUACUGAGAGUAGAGUGCCAAAGGGGAAGGGAGACAGAAGCAAGGGAAAUAAAUGACACUAAUAAUGAAA` the bound/input enrichment was 1.12 ratio.
The bound/input enrichment of `AGCUCUAGGCUUUUCAGAUGUGGAUCAUACCUAUGCUCAAAGAACUCAGCUCUUUGACACCUUAGUAAAUUUCUUUCCUGACAGCAUGACUCCUCCUAAAGGCAACCUGGUAGACCUGAU` is reported as 5.79 ratio.
`AAGAAAAUGCAUAUACAAAGUGCUGUGUCCAAAAUGAACCCUGGGGAGAAAGAACCCAUUCAUAGAGGAACUACUGAAGUGAAUAUAGAUUCUGAAACUGUUCAUAGAAUGUUACUGAGU` gave a bound/input enrichment of 0.246 ratio.
The bound/input enrichment of `GAUGAAGAAGGUGAAGGGGAUGAUGGUUAUGAACAAAUUUCCAGUGAUGAAGAUGGAAUUGCUGACUUGGAACGUGAAACAUUUAAGUAUCCAAACUUUGAUGUUGAAUACACUGCUGAA` is reported as 0.143 ratio.
With `UACUGAACUGAACCUGUAAGCCAGCCCCAAUUAAAUGUUGUCCUUAGAAGAGUUGCUUUGGUCAUGGUGUCUGUUCUCAGCGAGGAAAACCCUAGCCAAGAUAGAUGCAAAAGAAAGGAG` the bound/input enrichment was 0.259 ratio.
With `CGAGCUGGAUCCAGAGUUGCAUAUAGACCAAUUUCUGCAUCAGUGUUAUCUCGGCCAGAGACUAGGACUGGAGAGGGCUCUACAGUUUUUAAUGGGGCCCAGAAUGGUGUGUGUCAGCUG` the bound/input enrichment was 0.163 ratio.
`GGUCCCUGGGGAGCUCAGCACCCACCUAUAUCCCUGCCAGUUCCUGAAGGUCUUUCCACUCCUGUUCAUUUCUGUUCUGAUGUCUCUUUCCUCACACUGACCUCCCCUAUAAAAACACAC` gave a bound/input enrichment of 1.11 ratio.

Excerpt of the above (series 1):
`CATTTGACTCCATAGAACGTGTGGAGCTGGTGCCAT` gave a fluorescence intensity of 68.4 a.u.
`CATACCCAACCTTTTCACGTGAGGTAAGATATTTGT` gave a fluorescence intensity of 1220 a.u.
`CGTCCTAGTGATTTTCACGTGTTTTCCATGAGGAAG` gave a fluorescence intensity of 1100 a.u.
The fluorescence intensity of `CATCATCGCATCTTACAGATGTCCCGGTTTCACTTT` is reported as 68.8 a.u.
`AAAGCGGTAATTTGTCACTTCACTTCACATATCTAT` has a fluorescence intensity of 83.2 a.u.
With `GTCTTGTCTCATTGGTTTGTGGGTGTCCCCACTTCA` the fluorescence intensity was 76.6 a.u.
`CTAACGAAGGTTTGCGAGGTGGGTGACAAGCCAAGT` has a fluorescence intensity of 71.7 a.u.
With `CATACCCAACCTTGTTTGGTGGGTGAAGATATTTGT` the fluorescence intensity was 78.4 a.u.
